Published values pooled from the literature.
Numbered parts are unrelated; each lists some results of a single study. Values joined by “and” are separate records of one study, mostly repeats; a detail may differ.
UniProt P07332, sequence (whole entry, looked up): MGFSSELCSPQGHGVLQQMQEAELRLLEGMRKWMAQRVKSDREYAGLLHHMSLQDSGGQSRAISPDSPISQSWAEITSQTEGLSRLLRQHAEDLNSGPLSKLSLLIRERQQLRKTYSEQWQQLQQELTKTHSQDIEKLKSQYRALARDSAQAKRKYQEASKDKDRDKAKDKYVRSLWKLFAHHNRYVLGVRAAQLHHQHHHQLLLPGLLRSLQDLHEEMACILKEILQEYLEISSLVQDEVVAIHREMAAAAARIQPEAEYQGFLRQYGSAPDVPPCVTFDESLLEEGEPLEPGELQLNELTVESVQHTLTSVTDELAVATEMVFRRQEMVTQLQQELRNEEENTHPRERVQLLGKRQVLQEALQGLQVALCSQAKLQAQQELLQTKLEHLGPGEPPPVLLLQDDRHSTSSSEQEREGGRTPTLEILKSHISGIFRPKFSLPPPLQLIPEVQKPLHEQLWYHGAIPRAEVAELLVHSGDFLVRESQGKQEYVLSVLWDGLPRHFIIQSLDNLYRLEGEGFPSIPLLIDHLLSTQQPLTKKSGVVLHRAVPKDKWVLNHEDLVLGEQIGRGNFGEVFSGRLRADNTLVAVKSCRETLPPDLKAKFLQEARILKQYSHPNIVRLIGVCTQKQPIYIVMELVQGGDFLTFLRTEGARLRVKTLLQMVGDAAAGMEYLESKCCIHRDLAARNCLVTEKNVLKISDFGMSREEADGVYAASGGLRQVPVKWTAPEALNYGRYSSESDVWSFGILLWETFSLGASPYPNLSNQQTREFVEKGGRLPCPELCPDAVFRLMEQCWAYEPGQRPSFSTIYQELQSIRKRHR
UniProt O95835, sequence (whole entry, looked up): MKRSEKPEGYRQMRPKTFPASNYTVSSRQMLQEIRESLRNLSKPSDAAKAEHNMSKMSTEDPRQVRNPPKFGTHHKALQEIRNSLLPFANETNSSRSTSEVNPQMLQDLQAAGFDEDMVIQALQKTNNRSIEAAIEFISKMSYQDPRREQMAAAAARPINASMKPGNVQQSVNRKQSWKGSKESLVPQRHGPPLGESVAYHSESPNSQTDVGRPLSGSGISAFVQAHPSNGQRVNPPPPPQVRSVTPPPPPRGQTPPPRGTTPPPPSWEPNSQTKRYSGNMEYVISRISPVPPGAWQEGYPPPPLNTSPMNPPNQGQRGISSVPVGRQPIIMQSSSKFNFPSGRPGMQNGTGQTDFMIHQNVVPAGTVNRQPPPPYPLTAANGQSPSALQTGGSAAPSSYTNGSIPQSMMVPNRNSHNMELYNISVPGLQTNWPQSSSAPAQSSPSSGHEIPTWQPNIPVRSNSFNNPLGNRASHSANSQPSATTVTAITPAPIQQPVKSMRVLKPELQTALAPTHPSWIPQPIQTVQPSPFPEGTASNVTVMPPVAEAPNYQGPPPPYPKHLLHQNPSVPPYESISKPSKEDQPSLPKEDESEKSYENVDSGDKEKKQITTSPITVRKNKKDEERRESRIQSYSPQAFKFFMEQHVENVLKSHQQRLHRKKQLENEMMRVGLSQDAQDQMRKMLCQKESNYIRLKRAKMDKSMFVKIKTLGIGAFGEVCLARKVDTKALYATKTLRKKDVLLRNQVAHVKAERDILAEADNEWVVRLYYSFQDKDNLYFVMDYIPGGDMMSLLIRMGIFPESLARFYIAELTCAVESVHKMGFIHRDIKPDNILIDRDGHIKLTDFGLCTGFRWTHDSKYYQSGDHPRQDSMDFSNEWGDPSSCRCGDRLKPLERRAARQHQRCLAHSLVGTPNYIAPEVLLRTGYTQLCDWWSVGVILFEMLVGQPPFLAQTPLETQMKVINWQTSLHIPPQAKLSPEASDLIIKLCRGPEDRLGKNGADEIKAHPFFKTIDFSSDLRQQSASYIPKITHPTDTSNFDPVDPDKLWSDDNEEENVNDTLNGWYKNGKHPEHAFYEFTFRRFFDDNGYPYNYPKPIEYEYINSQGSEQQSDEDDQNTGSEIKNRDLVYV
UniProt P11802, sequence (whole entry, looked up): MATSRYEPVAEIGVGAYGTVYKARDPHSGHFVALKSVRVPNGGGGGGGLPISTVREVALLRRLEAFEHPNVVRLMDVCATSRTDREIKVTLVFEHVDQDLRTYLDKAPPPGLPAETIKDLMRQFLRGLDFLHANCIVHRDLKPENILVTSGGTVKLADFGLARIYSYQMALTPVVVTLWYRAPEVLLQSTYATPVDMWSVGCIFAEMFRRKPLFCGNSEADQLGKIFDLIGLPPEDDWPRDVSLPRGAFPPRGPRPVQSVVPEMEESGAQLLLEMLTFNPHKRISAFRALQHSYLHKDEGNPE
UniProt Q00535, sequence (whole entry, looked up): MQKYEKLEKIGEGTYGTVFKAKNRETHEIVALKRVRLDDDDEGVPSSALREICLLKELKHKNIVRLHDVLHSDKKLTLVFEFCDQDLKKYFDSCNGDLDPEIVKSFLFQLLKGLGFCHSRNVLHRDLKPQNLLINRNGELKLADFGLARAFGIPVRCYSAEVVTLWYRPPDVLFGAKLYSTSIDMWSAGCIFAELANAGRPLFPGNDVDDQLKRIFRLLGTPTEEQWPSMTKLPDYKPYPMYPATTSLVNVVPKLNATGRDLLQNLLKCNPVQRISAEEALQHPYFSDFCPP
UniProt Q9UBF8, sequence (whole entry, looked up): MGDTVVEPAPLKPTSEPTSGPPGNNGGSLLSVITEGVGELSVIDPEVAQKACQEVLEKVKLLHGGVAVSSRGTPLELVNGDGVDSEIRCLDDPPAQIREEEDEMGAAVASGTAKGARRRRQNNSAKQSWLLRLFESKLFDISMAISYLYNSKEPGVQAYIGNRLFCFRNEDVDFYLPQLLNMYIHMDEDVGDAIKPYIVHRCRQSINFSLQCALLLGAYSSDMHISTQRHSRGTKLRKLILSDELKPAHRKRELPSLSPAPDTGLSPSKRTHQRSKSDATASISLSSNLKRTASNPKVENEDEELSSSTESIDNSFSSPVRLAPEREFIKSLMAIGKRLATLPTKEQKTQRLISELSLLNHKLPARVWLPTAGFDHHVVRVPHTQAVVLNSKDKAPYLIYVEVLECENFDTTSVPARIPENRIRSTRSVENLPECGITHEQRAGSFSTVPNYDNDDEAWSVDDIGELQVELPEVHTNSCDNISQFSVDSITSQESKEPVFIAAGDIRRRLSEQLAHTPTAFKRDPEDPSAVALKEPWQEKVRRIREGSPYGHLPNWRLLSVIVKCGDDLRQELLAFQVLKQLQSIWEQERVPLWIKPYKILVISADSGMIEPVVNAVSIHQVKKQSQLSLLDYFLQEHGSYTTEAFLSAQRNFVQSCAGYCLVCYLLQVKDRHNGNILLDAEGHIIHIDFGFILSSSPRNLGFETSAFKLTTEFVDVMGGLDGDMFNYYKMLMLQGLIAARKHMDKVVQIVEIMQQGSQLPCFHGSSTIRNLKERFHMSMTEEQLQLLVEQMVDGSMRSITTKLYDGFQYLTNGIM
UniProt P36894, sequence (whole entry, looked up): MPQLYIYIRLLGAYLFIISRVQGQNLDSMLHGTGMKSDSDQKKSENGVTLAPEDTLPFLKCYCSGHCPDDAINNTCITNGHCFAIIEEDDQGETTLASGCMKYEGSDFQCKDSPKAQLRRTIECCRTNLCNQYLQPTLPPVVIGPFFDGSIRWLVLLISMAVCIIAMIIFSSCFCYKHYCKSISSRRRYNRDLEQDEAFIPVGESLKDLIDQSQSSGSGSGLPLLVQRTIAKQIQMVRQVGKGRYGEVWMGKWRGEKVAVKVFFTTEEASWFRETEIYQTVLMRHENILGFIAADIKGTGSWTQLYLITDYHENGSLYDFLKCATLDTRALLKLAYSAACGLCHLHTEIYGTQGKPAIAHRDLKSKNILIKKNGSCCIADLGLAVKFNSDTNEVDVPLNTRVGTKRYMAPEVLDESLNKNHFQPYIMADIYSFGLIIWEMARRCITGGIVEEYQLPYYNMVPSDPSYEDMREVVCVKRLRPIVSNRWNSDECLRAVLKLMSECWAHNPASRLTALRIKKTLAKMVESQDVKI
UniProt P00519, sequence (whole entry, unmodified, looked up): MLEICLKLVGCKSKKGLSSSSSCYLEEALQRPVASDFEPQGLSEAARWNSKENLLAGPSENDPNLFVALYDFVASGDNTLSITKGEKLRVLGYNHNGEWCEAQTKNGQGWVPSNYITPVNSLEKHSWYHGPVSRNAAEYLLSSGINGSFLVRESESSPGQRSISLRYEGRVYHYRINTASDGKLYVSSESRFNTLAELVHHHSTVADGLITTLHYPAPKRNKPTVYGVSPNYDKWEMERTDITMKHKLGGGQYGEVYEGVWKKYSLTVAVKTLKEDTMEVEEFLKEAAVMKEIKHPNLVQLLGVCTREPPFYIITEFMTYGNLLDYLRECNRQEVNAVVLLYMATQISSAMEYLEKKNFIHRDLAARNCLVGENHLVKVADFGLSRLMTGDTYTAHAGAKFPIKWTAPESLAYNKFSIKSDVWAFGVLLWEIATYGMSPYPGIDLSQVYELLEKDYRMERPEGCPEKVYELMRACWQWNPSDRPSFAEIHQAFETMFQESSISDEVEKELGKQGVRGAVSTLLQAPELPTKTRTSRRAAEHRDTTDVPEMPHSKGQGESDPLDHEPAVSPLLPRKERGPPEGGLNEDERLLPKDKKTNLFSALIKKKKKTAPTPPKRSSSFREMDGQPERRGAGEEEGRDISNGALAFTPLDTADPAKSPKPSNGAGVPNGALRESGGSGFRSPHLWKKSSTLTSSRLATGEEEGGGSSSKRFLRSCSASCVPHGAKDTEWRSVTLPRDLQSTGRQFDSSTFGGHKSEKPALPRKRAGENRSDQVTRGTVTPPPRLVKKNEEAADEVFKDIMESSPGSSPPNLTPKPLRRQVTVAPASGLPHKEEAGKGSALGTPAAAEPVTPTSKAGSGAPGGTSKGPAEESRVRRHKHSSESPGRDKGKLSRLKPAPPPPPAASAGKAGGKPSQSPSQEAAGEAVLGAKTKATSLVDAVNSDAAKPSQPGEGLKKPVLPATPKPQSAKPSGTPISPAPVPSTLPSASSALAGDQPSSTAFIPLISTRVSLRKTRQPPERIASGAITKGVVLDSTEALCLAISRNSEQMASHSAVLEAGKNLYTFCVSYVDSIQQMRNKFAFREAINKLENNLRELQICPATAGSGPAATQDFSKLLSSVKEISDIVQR

Series 1 — tested at: 1 µM
Structure (SMILES): CC(=O)Nc1c(C(C)=O)c(=O)n(C)c2nc(-c3ccc(Cl)cc3Cl)c(-c3ccc(Cl)cc3)cc12
target	read-out	technique	remaining binding [%]
PIK3CA (Homo sapiens, UniProt P42336, H1047L)	cell-free assay	competition with immobilised ligand	95
PIK3C2B (Homo sapiens, UniProt O00750)	binding	competition with immobilised ligand	48
RIPK2 (Homo sapiens, UniProt O43353)	cell-free assay	competition with immobilised ligand	100
Tyrosine-protein kinase ABL1, phosphorylated (ABL1, Homo sapiens, UniProt P00519, F317I)	binding		94
FES (Homo sapiens, UniProt P07332)	cell-free assay	competition with immobilised ligand	100
TEK (Homo sapiens, UniProt Q02763)	cell-free assay	competition with immobilised ligand	91
MAP3K7 (Homo sapiens, UniProt O43318)	cell-free assay	competition with immobilised ligand	100
CDC42BPA (Homo sapiens, UniProt Q5VT25)	cell-free assay	competition with immobilised ligand	100
PRKACA (Homo sapiens, UniProt P17612)	cell-free assay	competition with immobilised ligand	100
LATS1 (Homo sapiens, UniProt O95835)	cell-free assay	competition with immobilised ligand	98
BMPR1A (Homo sapiens, UniProt P36894)	binding	competition with immobilised ligand	85
CDK4 (Homo sapiens, UniProt P11802)	cell-free assay	competition with immobilised ligand	87
MAPK6 (Homo sapiens, UniProt Q16659)	cell-free assay	competition with immobilised ligand	100
BUB1 (Homo sapiens, UniProt O43683)	cell-free assay	competition with immobilised ligand	92
PI4KB (Homo sapiens, UniProt Q9UBF8)	cell-free assay	competition with immobilised ligand	100
CSNK1G2 (Homo sapiens, UniProt P78368)	cell-free assay	competition with immobilised ligand	100
PNCK (Homo sapiens, UniProt Q6P2M8)	cell-free assay	competition with immobilised ligand	100
CDK5 (Homo sapiens, UniProt Q00535)	cell-free assay	competition with immobilised ligand	100

Series 2 — cell line: mouse MPNST tumor cells; technique: high-content nuclear imaging; item: cell number; tested at: 10 µM; time: 12 h; setting: mean of 2 replicates; baseline: plate mean; reading: higher = more cells
Structure (SMILES)	nuclei count
CC(=O)O[C@H]1C[C@@H]2CC[C@@H]3[C@H](CC[C@@]4(C)[C@H]3C[C@H]([N+]3(C)CCCCC3)[C@@H]4OC(C)=O)[C@@]2(C)C[C@@H]1N1CCCCC1	0.274 z-score and 0.554 z-score
CCOc1cc2ncc(C#N)c(Nc3ccc(F)c(Cl)c3)c2cc1NC(=O)/C=C/CN(C)C	-5.99 z-score
CN1CCN(CCCN2c3ccccc3Sc3ccc(Cl)cc32)CC1	-4.94 z-score
O=C(O)CNC(=O)C(CS)Cc1ccccc1 (stereo not drawn)	0.616 z-score

Series 3 — read-out: probe labelling
SMILES: COc1cc(C(=O)N2CCC(N3CCN(C)CC3)CC2)ccc1Nc1ncc2c(n1)N(C)c1ccccc1C(=O)N2C
target	action	technique	matrix	tested at	setting	inhibition
HPK1 (human)		KiNativ ATP probe	human PBMC lysate	concentration not given	LYS1 labelled site	5.7%
MAP3K1 (human)		KiNativ ADP probe	human PBMC lysate	concentration not given	LYS2 labelled site	-27.8%
STLK5 (mouse)	inhibitor	KiNativ ActivX ADP probe	mouse brain lysate	0.1 µM	activation loop peptide	-14.2%
mouse NUAK1		KiNativ ATP probe	mouse brain lysate	1 µM		7.8%

Series 4 — species: human, idiopathic pulmonary fibrosis
Structure (SMILES): CC(C)n1cnc(-c2ccc(F)cc2)c1-c1ncc(C(=O)Nc2ccc(N3CCN(C)CC3)cc2)[nH]1
item	dose	setting	AE leading to discontinuation [%]
acute appendicitis	30 mg once daily	trial	5.6
	30 mg twice daily	trial, without standard of care	30
coronary artery atherosclerosis	30 mg twice daily	trial	5.6
liver injury	60 mg once daily	trial	5.6

Series 5 — species: mouse; matrix: microsomes or S9; tested at: 2 µM; time: 0.5 h
Structure (SMILES)	remaining compound [%]
CCC1=NOC(c2nc3sc(CC)cc3c(=O)[nH]2)C1 (stereo not drawn)	23.3
O=C(O)c1ccc(CN(c2ccccn2)S(=O)(=O)c2ccccc2)cc1	95.8
CC(C)(NC(=O)C1CCC(NC(=O)C2CCCC2)CC1)c1noc(C(N)=O)n1 (stereo not drawn)	84.1
Cc1ccc(Nc2cc(N3CCN(c4oc(C)nc4C#N)CC3)ncn2)cc1	6.96
CC(C)Oc1ccc(CNC(=O)NC2CCCCNC2=O)cn1 (stereo not drawn)	> 100
COC(=O)NC12CCCC(C1)c1ccc(=O)[nH]c1C2 (stereo not drawn)	> 99.9

Repeated from above (series 5):
Structure (SMILES)	remaining compound [%]
CC(C)Oc1ccc(CNC(=O)NC2CCCCNC2=O)cn1 (stereo not drawn)	> 100
O=C(O)c1ccc(CN(c2ccccn2)S(=O)(=O)c2ccccc2)cc1	95.8
CCC1=NOC(c2nc3sc(CC)cc3c(=O)[nH]2)C1 (stereo not drawn)	23.3
CC(C)(NC(=O)C1CCC(NC(=O)C2CCCC2)CC1)c1noc(C(N)=O)n1 (stereo not drawn)	84.1
